Published values of several laboratories.
Each numbered part is a random draw from the data of one study; scales do not carry over between parts. Positions count from the first letter of the parent shown.

Sample 1
Target: JUNB, bZIP domain (human)
Method: DHFR protein complementation
Sample: yeast
Notes: single substitutions, most at no-binding floor
Relative to: wild-type JUN-FOS pair
Direction: higher = stronger binding
Parent: JUN, bZIP domain (human); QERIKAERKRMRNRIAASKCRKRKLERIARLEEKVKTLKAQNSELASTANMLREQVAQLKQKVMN; partner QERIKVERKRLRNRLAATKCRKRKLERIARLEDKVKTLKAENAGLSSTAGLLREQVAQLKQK
Change | binding fitness [natural log]
V56Q | -1.51
A49P | -1.45
A57L | -1.24
K39Y | -1.45
V56Y | -1.2
L45Y | -1.31
K39D | -1.49
T37D | -1.09
E32Q | -1.35
T37H | -0.936
A29C | -1.4
K34S | -1.24
L52W | -1.37
T37F | -1.08
E32L | -1.35
E44L | -1.21
R30H | -1.09
I28P | -1.5
A46S | -1.11
M51R | -1.07

Sample 2
Target: RING finger protein unkempt homolog, zinc fingers 1-6, GST-SBP tag (UNK, Homo sapiens, UniProt Q9C0B0, residues 30-357)
Sequence of UniProt Q9C0B0 (30-357, looked up): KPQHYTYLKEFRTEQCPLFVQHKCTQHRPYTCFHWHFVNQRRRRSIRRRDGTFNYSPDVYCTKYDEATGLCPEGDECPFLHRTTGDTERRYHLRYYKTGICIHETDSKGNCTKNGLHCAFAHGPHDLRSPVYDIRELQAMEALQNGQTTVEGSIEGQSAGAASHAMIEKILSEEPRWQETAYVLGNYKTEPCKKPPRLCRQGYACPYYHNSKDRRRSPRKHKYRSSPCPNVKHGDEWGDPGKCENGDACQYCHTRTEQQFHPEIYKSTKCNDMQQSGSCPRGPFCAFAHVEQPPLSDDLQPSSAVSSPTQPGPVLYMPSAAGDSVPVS
Method: RNA Bind-n-Seq
Form: RNA
Sample: in vitro
Concentration: not given
Notes: RNA with constant flanks, human and mouse sites, ends assumed
Relative to: input RNA pool
Direction: higher = stronger binding
Constant ends, left off below: GGGAGUUCUACAGUCCGACGAUC … CAACAGAGGAUUGAGCAUCA
Oligonucleotide | bound/input enrichment
CUCAGGUUAGAACAAAAAUGUCAUAAAGGGCACUAAAAGUAACAUUUGGGUUUCACUCCAUAUCUAGAAGAAUUUAGCUCACAAAACAAUUUUUGUGUGUUUUGAGUAACUGAUGCAUAA | 5.21 ratio
GCUUACAAAGCUGCUAGUGACAUUGCGAUGACAGAACUUCCUCCAACGCACCCCAUUCGUUUAGGUCUUGCUCUCAACUUUUCCGUAUUCUACUAUGAAAUUCUUAAUUCCCCCGACCGU | 1.22 ratio
ACAUCUGACUGCUGGAUGAAGACUGUUCCAAGUUAUAACCAAACAAAUAGCUCCAUGGACUUUAGAAAUUAUAUGAUGAGAGAUGAGAAUCUGGAACCGCUGCCCAAAAACUGGGAAAUG | 9.87 ratio
AAUAGAAACCAAACCAAAUGGGCACCCUGGGUUGCCCAGGGGCAGGGGAUGGGAGGGGGGUGGGAAGAAGGGAUGUCUGUCUGUCAGUCCCCUCCCCCUCUCCACUCCUUACCCACAAAG | 0.234 ratio
UUUGUGACCAUUUAAUUAUUGUUUCAGAACUUCUGCAUGGCCUUCAGAUAAAAAUUAAGUAAAAUUUACCUUAACUCUAAAGCUACAGUAUUUUUAAGAAAUAGUAUUUUACCCUAGCAG | 8.41 ratio
AGGUUUCAGGUACGUUCACCAACUUUCUUUCAAAAAUCCCGGGACCAGCAUUGGUACAUUACUCAGUUGGAAGCUGCACAGACUAGUUAUAUCCAACAAAUAAACAACCUUAAAGAGAGA | 0.715 ratio
GGUCUAAACAAAUGUGAAGUUAGUCAUAGGCGAGCCUUUCAUGGCUGGAAUGAGUUUGAUAUUAGUGAAGAUGAGCCACUGUGGAAGAAGUAUAUUUCUCAGUUUAAAAAUCCCCUUAUU | 3.03 ratio
GAAGGACUGUAAUCAUAAUAAGCUCACUACUUGGCUAUUGUUUUUGUUUUAAUAUUCAACUAUAGUAGUGUUUUAAAAAAAGUUAAAUGAAGAAUAAACACAAAUAUAAAAGCUCUGACU | 0.355 ratio
GCACAGCAACUCUUACAGUCUUAGGUGUUACCAAGAACAGAUCUCAACUGUAAGAGUUGUCAGUACAGGUUUUCUUUUCCUUUUGUUUUUGUUAUUGUUUUUUUUUUUUUUUUUUUUUUU | 7.89 ratio
AAUCAAGGAGUCUGAUUGCAGGAAGGAAAGAGCAUGUAAGAAACACAUUUUUUAAAGUGUUAUUUUGUAUAAAUGGGAAGAAAGACGCAAUUAAGUUAUUGACACUUGGGACCUGGACGA | 0.465 ratio
AGUGAAGAAAAUGCUGAGCCGGAUCUCGAUGACAAUGAGGAGGAGGAGGAGCCUGCUGUAGAAAUUGAACCUGAGCCAGAGCCUCAGCCCCAGCCUCCGCCUCCACCUCAGCCUGUGGCC | 0.254 ratio

Sample 3
Target: Histone acetyltransferase KAT6A, winged helix 1, GST fusion (KAT6A, Homo sapiens, UniProt Q92794, residues 1-85)
Method: protein binding microarray
Form: double-stranded DNA, one strand shown
Sample: in vitro
Concentration: not given
Notes: 8-mer, flanks averaged, mean of 2 arrays, mostly near background
Relative to: not given
Direction: higher = stronger binding
Target sequence (chain): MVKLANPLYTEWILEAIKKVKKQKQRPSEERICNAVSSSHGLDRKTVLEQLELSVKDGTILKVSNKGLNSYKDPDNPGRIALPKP
Oligonucleotide | E-score
ACAGACCT | 0.0281
TTCATAAA | -0.0927
AGATGTAA | -0.053
GCCACGGC | 0.373
GTGCCCCA | -0.111
GATTTTAA | 0.00549
ATTCCATG | -0.0634
AAAGAGTG | -0.118
GCACAATA | -0.0961
AACTTGCC | -0.072
ACGAATAG | -0.11
ACTAAAGC | -0.0296
AACCAATC | -0.231
CCAGGGCA | -0.187
CCGCCGAG | 0.354
ACTATAAG | 0.0187
CCGCCCCG | 0.392
CCATAACG | 0.0761
CTATCAAG | -0.147
ACATGCGA | 0.0683

Sample 4
Target: RNA binding protein fox-1 homolog 2, RRM domain, GST-SBP tag (RBFOX2, Homo sapiens, UniProt O43251-10, residues 100-194)
Method: RNA Bind-n-Seq
Form: RNA
Sample: in vitro
Concentration: 365 nM
Notes: natural RNA segment, single round, ends assumed
Relative to: no-protein control
Direction: higher = stronger binding
Constant ends, left off below: GGGAGUUCUACAGUCCGACGAUC … UGGAAUUCUCGGGUGCCAA
Target sequence (chain): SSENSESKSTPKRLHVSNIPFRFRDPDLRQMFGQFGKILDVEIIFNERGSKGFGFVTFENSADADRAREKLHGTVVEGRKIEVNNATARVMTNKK
Oligonucleotide | RBNS enrichment (R)
CAGACUCCACACGUGGAAACAAGACUGGGUUUCUCAGCUUCCGUGUCAAGUCAGCCAGAGGAAAGAGGUCGAGUUGACAGCAGCAGGCACUGCCCUUCCUAGUUGGUGGC | 0.494
GAGGGACUGAGUGGCCCGCGGGCCCCAGUGAGGCACUUUGUCCCGCCCAGCGCUGGCCAGCCCCGAGGAGCCGCUGCCUUCACCGCCCCGACGCCUUUUAUCCUUUUUUA | 0.572
GGUGAGCCGAAUGGGCAUGGCUGCGCUGGAUCCUGCGCCUCUGGACGUGCUAGCCAUUUCCAGUGUCCCAACUACUGUCAUCGUGAGGUUUUCAUCGGCUGUGCCAUUUC | 0.22
GUCAGCCACGGCUUCCACUUGCAUGGCUAUUCUAUUUUCACACGUGAGUUUCUGUUGCUGGCUGGCUGACUGGCAUUAUCUAUGCUAAGUUGAAAUCAGGGGUGCCCAGC | 4.03
ACUUAUAUACAUUAGAUAAAAGGAGCUGUAUAAUUUAGCAGGAAGGGACUAUGGGAGAAUACUUUACUGUGAGUGGAAAAUGUUAGCACAUUUGACUGGUUUGCCCUGGA | 1.43
GGAAGUCCACUUCAGUAAGUGCAAGGCGCUAGCACCCAUCGAGGUAGAGGACAUUGCUUUAAGCCCCAGUUUGUUUGUAGGGUUGAGUAUGAAAAAGCCCAUCUCCUGUG | 5.93
AAUGUAGGGGGAUCUCGGAAUGAACUCCUGGGGUUCCUGGUCUCCAGCCCAGCCUGAUGGUGUAAAUGUACUGUUUCAGAAAACACAUGAGGCUCACCGAAGGCUGAAGA | 0.882
AGCCCUUGGUACUCCAGAUGUGGUUCCAGGCUCCCUUGUGGGAGCUGGACCGGUCUGGGUUUAAUCUCCCACAAUAAAGAUAAACCCCACGGACCUCACUGCUACUGCUG | 0.224
AAAGAUGUGAUUUAGUUCCUAGCCCAUCAGGCAGCUCACAGCCACAUGACUAUAACUCUAGACCCAGAGAAUCUGAUGUUCUUCUCCUCUGAGGGCAUCUGAAUGCAUAU | 0.977
AGCUAUAAACCCGCACUCAGCGCCUGCUCUCCAGACUCUCUCCCAGCCCCACGGGUCCACGAUGUACAAAAUCAUUUUGACCAGCAGGUCUGCAGACCCUUCCCCCACUG | 0.378
GUCCAUUUAACGACUGGUCACCUGCUGGGGACCCAGGCAUCUGCCUUGUUUUCCUUUUUCUUUCAGUUUUGGACUUUGGACCCUGCACAGCCGUUCCCCAGGGUCUGAAA | 0.325
GCCUCAUUUAUCUACAUAACAUUAUUAACUAGAACAUAAUGCUUUCAAAGUUUAAGUUAAUGUUAUAUAUUAUGUAUAAAUAUAUAUAUUCAUAAUGAGAUAUAUGUAAU | 0.772

Sample 5
Target: CCNE1, cyclin fold, Cln2 fusion (human)
Method: yeast growth competition, sequencing
Sample: yeast
Notes: weak parent motif
Relative to: not given
Direction: higher = stronger binding
Parent: RB1 docking peptide (human); PKPLKKLRFDIEG
Change | normalised enrichment score
PKPLKKHRFDIEG [L7H] | 0.199
PKYLKKLRFDIEG [P3Y] | -0.13
PKPLKKLRFDILG [E12L] | 0.826
PKPLKKLRNDIEG [F9N] | 0.936
PKPLKKLQFDIEG [R8Q] | 0.071
PKPLKKLRGDIEG [F9G] | 0.921
PKPLKKLRFDDEG [I11D] | -0.242
PKPLKVLRFDIEG [K6V] | 0.491
PKPLKLLRFDIEG [K6L] | 0.369
PKPLKKCRFDIEG [L7C] | 0.228
PKPLDKLRFDIEG [K5D] | -0.0236
PKPLIKLRFDIEG [K5I] | 0.112
PKPLKKLRHDIEG [F9H] | -0.208
PKPLKKLRFDIRG [E12R] | -0.0372
PKPLKKLRFDPEG [I11P] | -0.459
PKPLKFLRFDIEG [K6F] | 1.08
PKPLKKLYFDIEG [R8Y] | 0.281
PKPLKKLRFDIEI [G13I] | 0.45
NKPLKKLRFDIEG [P1N] | -0.307
PKPLKHLRFDIEG [K6H] | 0.389
DKPLKKLRFDIEG [P1D] | 1.33
PKPLKKLRFLIEG [D10L] | 0.319
MKPLKKLRFDIEG [P1M] | 0.026
PKPLKKLWFDIEG [R8W] | -0.215
PKPLKKERFDIEG [L7E] | 0.171

Sample 6
Target: Sal-like protein 4, full length isoform B (SALL4, Homo sapiens, UniProt Q9UJQ4-2, residues 1-616)
Method: universal PBM
Form: double-stranded DNA, one strand shown
Sample: in vitro
Concentration: not given
Notes: 8-mer, flanks averaged, mean of replicates
Direction: higher = stronger binding
Oligonucleotide | E-score
ATTTTGTA | 0.272
TTCGAGAA | 0.0615
ACCCGACA | -0.224
AGTTAAAT | 0.24
ACCCCTAT | -0.0736
GCTTAGTA | 0.11
GCAGTACC | -0.0749
ACTCGTAT | 0.12
AACCTTAG | 0.0473
CTCCGGAC | -0.284
CCTATGAA | 0.135
CCGTATCG | -0.2
AGGCCCTA | -0.206
AGTCTTCA | -0.0186
ATGAGACA | 0.161
AGCAGCGC | -0.343
GTACGACA | 0.0626
ACTTAAAA | 0.201
AGACGGAA | -0.0896
GGGTACAC | -0.186
AGACAGTA | 0.0923
ACGAAACA | -0.041
AAGATGTA | 0.205
ATATTGGC | 0.234
CTTACCAA | 0.2

Repeated from above (sample 6):
Oligonucleotide | E-score
AGGCCCTA | -0.206
GGGTACAC | -0.186
AACCTTAG | 0.0473
ACCCCTAT | -0.0736
ATATTGGC | 0.234
GTACGACA | 0.0626
ACCCGACA | -0.224
TTCGAGAA | 0.0615
AGACAGTA | 0.0923
ACTCGTAT | 0.12
CTTACCAA | 0.2
CCGTATCG | -0.2
AGTTAAAT | 0.24
ATGAGACA | 0.161
ACTTAAAA | 0.201
CCTATGAA | 0.135
GCAGTACC | -0.0749
